Measurements pooled from the literature.
A part holds a random share of what one study measured. “And” joins repeats or separate records; there may be more than shown.
UniProt Q16566, sequence (whole entry, looked up): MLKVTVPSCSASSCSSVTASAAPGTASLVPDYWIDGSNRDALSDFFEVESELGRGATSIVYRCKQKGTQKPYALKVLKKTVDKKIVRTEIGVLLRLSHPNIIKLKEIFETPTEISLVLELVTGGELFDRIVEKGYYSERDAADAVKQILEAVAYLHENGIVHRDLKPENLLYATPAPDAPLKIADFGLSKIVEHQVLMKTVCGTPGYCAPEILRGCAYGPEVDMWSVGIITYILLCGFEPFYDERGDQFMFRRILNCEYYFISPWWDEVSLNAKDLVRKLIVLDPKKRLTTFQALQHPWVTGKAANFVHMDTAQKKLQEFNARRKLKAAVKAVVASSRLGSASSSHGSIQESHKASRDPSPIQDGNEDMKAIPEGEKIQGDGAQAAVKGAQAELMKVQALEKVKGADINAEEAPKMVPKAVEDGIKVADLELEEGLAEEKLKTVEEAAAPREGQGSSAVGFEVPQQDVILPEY
UniProt P42681, sequence (whole entry, looked up): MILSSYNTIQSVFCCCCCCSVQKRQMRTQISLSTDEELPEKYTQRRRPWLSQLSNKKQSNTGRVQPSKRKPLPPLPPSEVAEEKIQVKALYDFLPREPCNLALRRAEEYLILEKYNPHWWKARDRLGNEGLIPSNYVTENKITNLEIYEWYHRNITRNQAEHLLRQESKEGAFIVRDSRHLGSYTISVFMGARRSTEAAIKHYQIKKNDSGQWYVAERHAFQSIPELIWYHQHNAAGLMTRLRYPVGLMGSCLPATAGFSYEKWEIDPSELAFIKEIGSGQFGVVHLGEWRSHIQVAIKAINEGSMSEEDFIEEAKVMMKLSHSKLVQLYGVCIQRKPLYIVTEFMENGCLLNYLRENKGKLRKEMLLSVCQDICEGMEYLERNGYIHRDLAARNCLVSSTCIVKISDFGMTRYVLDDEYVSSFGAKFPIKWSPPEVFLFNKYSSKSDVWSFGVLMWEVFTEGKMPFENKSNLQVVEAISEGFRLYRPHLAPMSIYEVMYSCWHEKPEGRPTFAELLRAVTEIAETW
UniProt Q8N568, sequence (whole entry, looked up): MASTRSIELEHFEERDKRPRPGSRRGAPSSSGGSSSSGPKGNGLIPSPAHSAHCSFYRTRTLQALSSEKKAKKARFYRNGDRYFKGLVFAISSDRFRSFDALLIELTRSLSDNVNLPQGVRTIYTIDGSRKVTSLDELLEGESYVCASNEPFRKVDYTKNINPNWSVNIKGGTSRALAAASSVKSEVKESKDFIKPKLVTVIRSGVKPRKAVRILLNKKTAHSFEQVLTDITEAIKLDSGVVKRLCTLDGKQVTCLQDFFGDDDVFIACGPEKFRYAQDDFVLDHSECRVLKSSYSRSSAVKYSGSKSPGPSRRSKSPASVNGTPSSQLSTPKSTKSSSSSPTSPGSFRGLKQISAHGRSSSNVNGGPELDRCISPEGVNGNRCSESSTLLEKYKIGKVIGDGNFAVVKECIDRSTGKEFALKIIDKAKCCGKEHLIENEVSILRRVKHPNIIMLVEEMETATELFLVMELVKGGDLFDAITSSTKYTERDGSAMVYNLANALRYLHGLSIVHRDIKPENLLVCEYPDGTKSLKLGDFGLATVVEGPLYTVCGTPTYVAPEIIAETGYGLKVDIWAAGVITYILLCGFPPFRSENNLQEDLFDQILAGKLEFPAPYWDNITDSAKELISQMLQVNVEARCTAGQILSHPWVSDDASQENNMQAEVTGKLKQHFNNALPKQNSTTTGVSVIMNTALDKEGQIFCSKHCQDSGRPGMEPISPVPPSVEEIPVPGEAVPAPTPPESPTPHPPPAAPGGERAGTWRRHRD

Sample 1 — read-out: enzyme activity; mode: inhibitor; concentration: 10 µM
Target: Calcium/calmodulin-dependent protein kinase type II subunit alpha (CAMK2A, Homo sapiens, UniProt Q9UQM7)
UniProt Q9UQM7, sequence (whole entry, looked up): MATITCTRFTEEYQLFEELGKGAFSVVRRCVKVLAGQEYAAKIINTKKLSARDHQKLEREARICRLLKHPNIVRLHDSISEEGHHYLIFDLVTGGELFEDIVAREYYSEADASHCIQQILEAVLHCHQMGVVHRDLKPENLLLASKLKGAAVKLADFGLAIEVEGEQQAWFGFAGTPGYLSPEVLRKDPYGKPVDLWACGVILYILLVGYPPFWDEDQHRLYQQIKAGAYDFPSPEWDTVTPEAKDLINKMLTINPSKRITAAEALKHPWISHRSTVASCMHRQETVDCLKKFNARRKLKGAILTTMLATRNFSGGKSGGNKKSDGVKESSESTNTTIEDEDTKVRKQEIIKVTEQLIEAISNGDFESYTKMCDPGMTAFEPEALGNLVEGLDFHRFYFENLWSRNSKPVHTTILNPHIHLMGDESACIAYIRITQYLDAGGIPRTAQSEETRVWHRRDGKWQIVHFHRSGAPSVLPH
Compound	inhibition [%]
CC(C)C[C@H]1C(=O)O[C@H](Cc2ccccc2)C(=O)N(C)[C@@H](CC(C)C)C(=O)O[C@H](C)C(=O)N(C)[C@@H](CC(C)C)C(=O)O[C@H](Cc2ccccc2)C(=O)N(C)[C@@H](CC(C)C)C(=O)O[C@H](C)C(=O)N1C	-12
C[C@@H]1C(=O)O[C@H]2[C@H](O)[C@]34[C@@H]5OC(=O)[C@]3(O[C@@H]3OC(=O)[C@H](O)[C@@]34[C@H](C(C)(C)C)[C@H]5O)[C@@]12O	-8
C[Se]C[C@H](N)C(=O)O	1
CC1=C(C)C(=O)C(CC[C@](C)(O)CCC[C@H](C)CCC[C@H](C)CCCC(C)C)=C(C)C1=O	-24

Sample 2 — read-out: enzyme activity; mode: inhibitor; concentration: 0.5 µM; baseline: control
SMILES: COC[C@H]1OC(=O)c2coc3c2[C@@]1(C)C1=C(C3=O)[C@@H]2CCC(=O)[C@@]2(C)C[C@H]1OC(C)=O
target	remaining activity
Serine/threonine-protein kinase MRCK beta (CDC42BPB, Homo sapiens, UniProt Q9Y5S2)	112%
Serine/threonine-protein kinase PLK3 (PLK3, Homo sapiens, UniProt Q9H4B4)	14.4%
Dual specificity protein kinase CLK3 (CLK3, Homo sapiens, UniProt P49761)	97.5%
Serine/threonine-protein kinase Nek3 (NEK3, Homo sapiens, UniProt P51956)	97.9%
Discoidin domain-containing receptor 2 (DDR2, Homo sapiens, UniProt Q16832)	95.7%
Serine/threonine-protein kinase DCLK2 (DCLK2, Homo sapiens, UniProt Q8N568)	96.7%
G protein-coupled receptor kinase 4 (GRK4, Homo sapiens, UniProt P32298)	95.3%
Calcium/calmodulin-dependent protein kinase type IV (CAMK4, Homo sapiens, UniProt Q16566)	98.5%
Myosin-IIIb (MYO3B, Homo sapiens, UniProt Q8WXR4)	86.4%
Mitogen-activated protein kinase 1 (MAPK1, Homo sapiens, UniProt P28482)	101%
Serine/threonine-protein kinase tousled-like 2 (TLK2, Homo sapiens, UniProt Q86UE8)	99.5%
Serine/threonine-protein kinase MARK2 (MARK2, Homo sapiens, UniProt Q7KZI7)	93%
Mitogen-activated protein kinase 14 (MAPK14, Homo sapiens, UniProt Q16539)	120%
Vascular endothelial growth factor receptor 2 (KDR, Homo sapiens, UniProt P35968)	88.4%
Tyrosine-protein kinase TXK (TXK, Homo sapiens, UniProt P42681)	99%

Sample 3 — organism: Plasmodium berghei; mode: inhibitor; cell line: Huh-7; strain: liver stage; concentration: 10 µM; time: 24 h; baseline: untreated control
Structure (SMILES)	infection rate [%]
CC(C)[N+](C)(CCC(C(N)=O)(c1ccccc1)c1ccccc1)C(C)C	110
NCC1(CC(=O)O)CCCCC1	121
Nc1ccncc1	102
O=C1CC[C@@]2(O)[C@H]3Cc4ccc(O)c5c4[C@@]2(CCN3CC2CC2)[C@H]1O5	118
Cl[C@H]1[C@H](Cl)[C@@H](Cl)[C@@H](Cl)[C@H](Cl)[C@H]1Cl	88.8
CNC(C)(C)Cc1ccccc1	114

Sample 4 — cell line: mouse MPNST tumor cells; method: high-content nuclear imaging; item: cell number; concentration: 10 µM; time: 12 h; notes: mean of 2 replicates; baseline: plate mean; direction: higher = more cells
SMILES	nuclei count
Cc1nnc2ccc(-c3cccc(C(F)(F)F)c3)nn12	1.59 z-score
CC(=O)O[C@H]1C[C@@H]2CC[C@@H]3[C@H](CC[C@@]4(C)[C@H]3C[C@H]([N+]3(C)CCCCC3)[C@@H]4OC(C)=O)[C@@]2(C)C[C@@H]1[N+]1(C)CCCCC1	0.492 z-score
O=C(N[C@H]1CN2CCC1CC2)c1ccc2c(c1)OCCO2	1.18 z-score

Sample 5 — mode: inhibitor; concentration: concentration not given; together with: without ssDNA
Target: DNA polymerase theta, helicase domain (POLQ, Homo sapiens, UniProt O75417)
UniProt O75417, sequence (whole entry, looked up): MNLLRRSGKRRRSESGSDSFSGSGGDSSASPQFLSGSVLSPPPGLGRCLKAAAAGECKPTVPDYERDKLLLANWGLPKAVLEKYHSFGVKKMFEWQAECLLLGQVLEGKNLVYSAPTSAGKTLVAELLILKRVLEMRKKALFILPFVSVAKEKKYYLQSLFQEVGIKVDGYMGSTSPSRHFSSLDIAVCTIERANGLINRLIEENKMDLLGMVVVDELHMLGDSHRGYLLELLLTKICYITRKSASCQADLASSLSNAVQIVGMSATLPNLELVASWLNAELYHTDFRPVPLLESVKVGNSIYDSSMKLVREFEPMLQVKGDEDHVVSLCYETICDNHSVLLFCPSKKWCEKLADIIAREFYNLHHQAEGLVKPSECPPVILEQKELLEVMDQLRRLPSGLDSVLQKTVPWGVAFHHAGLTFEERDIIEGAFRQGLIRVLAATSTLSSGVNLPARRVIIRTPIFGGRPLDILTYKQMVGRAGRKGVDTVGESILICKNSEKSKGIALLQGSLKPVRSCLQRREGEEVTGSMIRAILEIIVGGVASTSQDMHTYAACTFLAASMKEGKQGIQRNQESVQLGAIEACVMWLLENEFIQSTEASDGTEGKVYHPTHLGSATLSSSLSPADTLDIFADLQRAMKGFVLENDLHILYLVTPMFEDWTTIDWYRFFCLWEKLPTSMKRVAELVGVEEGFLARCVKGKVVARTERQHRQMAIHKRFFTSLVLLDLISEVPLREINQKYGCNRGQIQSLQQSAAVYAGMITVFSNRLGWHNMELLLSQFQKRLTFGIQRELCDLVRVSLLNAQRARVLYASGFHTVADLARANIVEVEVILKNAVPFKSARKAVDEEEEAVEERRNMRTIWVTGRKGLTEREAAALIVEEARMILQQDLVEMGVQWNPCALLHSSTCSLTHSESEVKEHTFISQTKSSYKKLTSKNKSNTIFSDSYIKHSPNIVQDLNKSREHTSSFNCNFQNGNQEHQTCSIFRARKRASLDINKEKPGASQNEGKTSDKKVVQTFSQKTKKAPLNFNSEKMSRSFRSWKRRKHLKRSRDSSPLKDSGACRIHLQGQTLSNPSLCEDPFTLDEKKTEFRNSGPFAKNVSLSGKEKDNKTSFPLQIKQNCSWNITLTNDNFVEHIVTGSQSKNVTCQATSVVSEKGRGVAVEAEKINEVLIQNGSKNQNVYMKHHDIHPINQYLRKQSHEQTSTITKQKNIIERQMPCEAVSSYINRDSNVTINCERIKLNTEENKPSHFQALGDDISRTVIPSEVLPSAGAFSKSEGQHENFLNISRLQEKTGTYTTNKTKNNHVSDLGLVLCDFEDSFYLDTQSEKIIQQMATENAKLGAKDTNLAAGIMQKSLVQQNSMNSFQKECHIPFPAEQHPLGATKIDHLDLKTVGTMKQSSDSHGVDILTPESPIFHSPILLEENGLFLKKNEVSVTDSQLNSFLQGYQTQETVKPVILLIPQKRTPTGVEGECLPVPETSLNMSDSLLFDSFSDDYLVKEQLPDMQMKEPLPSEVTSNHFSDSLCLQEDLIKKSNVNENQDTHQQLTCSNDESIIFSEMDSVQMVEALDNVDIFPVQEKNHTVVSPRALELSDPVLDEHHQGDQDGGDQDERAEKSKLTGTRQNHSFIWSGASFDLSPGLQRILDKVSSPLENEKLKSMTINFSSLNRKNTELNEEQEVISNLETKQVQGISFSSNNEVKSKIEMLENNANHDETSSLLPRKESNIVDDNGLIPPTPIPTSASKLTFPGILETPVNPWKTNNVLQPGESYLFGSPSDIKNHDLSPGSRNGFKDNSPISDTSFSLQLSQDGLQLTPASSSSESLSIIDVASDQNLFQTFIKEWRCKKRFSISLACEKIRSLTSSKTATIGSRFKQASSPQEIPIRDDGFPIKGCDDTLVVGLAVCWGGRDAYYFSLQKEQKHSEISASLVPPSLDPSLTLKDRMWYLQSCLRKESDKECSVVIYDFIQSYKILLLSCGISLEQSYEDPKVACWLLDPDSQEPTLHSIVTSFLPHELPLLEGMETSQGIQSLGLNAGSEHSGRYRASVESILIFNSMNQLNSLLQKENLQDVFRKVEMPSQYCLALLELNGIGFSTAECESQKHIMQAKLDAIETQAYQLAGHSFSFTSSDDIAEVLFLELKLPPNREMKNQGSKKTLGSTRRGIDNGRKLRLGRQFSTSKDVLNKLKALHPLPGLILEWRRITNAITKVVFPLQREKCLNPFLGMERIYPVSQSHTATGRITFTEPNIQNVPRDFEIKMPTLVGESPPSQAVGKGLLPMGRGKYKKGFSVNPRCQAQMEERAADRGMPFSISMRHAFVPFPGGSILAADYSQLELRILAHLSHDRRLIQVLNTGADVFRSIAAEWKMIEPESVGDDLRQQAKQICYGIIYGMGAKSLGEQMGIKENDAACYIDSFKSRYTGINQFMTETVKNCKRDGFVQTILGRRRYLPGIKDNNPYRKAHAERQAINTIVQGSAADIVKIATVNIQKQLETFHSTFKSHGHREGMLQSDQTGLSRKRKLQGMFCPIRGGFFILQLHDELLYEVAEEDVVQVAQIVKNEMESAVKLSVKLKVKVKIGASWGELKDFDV
Compound	remaining activity
CN(N=O)c1ccc(O)c(O)c1	95.6% and 94.1%
CCN(CC)C(=O)c1ccc2c(c1)N(Cc1ccc(C(F)(F)F)cc1)C(=O)c1ccccc1S2	28.9% and 31.6%
COc1cc(C(c2c(O)c3ccccc3oc2=O)c2c(C)n(C)n(-c3ccccc3)c2=O)ccc1OCC(=O)O (centres unmarked)	75.9% and 78.2%
CSc1ccc(C(c2c(O)c3ccccc3oc2=O)c2c(C)n(C)n(-c3ccccc3)c2=O)cc1 (centres unmarked)	107% and 105%
